Assay results gathered from unrelated publications.
Compare with care: the assays were run in different laboratories. Values joined by “and” are separate records of one study, mostly repeats; a detail may differ. pEC50: −log10 of the molar value. In brackets after ≈: the same amount, converted by molar mass.

SMILES	tested on	test	test system	setting	scale	measurement	result
O=C(N1CCc2ccccc21)n1ccnn1	Arabidopsis thaliana	–	wild type, seedlings	1 µM, continuous red light, together with: 0.3 µM karrikin KAR2	–	hypocotyl length	13.2 mm
Oc1ccccc1-c1n[nH]cc1-c1ccnc2ccccc12	orf19.3456 Candida albicans	kinase binding, MIB/MS competition	Candida albicans lysate	10 µM	relative to: DMSO	log2 fold change	0.14
Cc1n[nH]c2ccc(-c3cc(OC[C@@H](N)Cc4ccccc4)cnc3-c3ccoc3)cc12	orf19.6492 kinase Candida albicans	MIB/MS competition binding	Candida albicans cell lysate	1 µM	relative to: DMSO, lower = stronger binding	log2 fold change	-0.0346
Cn1cc(-c2ccc(-c3cncc(Cl)c3N3CCC4(CCNC4=O)CC3)cc2)cn1	COLO 205	microarray, measured: EDN1	–	concentration not given, 6 h, gene set Endothelin-1	relative to: untreated cells	fold change in expression	1.53
C=C[C@]1(C)C[C@@H](OC(=O)CSCCN(CC)CC)[C@]2(C)[C@H](C)CC[C@]3(CCC(=O)[C@H]32)[C@@H](C)[C@@H]1O	Mycoplasma gallisepticum	–	infected chickens, lung	intramuscular, 40 mg/kg	–	mycoplasma count	3.04 log10 CFU/mL
CC/C(=N\NC(=O)NCc1cccc(O)c1)c1ccc(O)c(C)c1O	SK-OV-3	ATP	2D monolayer culture	10 µM, 4 days	relative to: untreated	relative cell number	113%
c1ccc(-c2n[nH]cc2-c2ccnc3ccccc23)nc1	orf19.6492 kinase Candida albicans	MIB/MS competition binding	Candida albicans cell lysate	10 µM	relative to: DMSO, lower = stronger binding	log2 fold change	1.32
COc1cc(C(=O)NS(=O)(=O)c2ccccc2C)ccc1Cc1cn(C)c2ccc(NC(=O)OC3CCCC3)cc12	native VRAC	ion current, inhibitor, whole-cell patch clamp	wild-type HCT cells	30 µM, pH 6.0, extracellular pH	–	inhibition	90.5% and 94.3% and 94% and 83.3% and 92.4%
NC(=O)c1cnc2[nH]ccc2c1N[C@@H]1[C@@H]2CC3C[C@H]1C[C@@](O)(C3)C2	–	CD8+ central memory T cells, flow cytometry	Japanese humans, peripheral blood	20 mg single dose	relative to: baseline	percent change	-0.32%
O=C(/C=C/C=C/C=C/C1CCCCC1)NC1=C[C@@](O)(/C=C/C=C/C=C/C(=O)NC2=C(O)CCC2=O)[C@@H]2O[C@@H]2C1=O	COV318	cell growth, CellTiter-Glo	–	78 h	–	GI50	16 µM
CC(C)NCC(O)c1ccc(O)c(O)c1 (stereo not shown)	–	–	ventricular cardiomyocytes, C57BL/6 mouse	dose not given, 0.528 s	–	sarcomere length	1.49 µm
CCn1cc(-c2cc(Cn3ccnc3)cc3c2CCN([C@H](c2cc(OC)ccn2)C2CC2)C3=O)c(C(F)(F)F)n1	HPAF-II	cell growth	–	120 h	–	pEC50	< 4.52
N#Cc1ccc2c(-c3ccncc3)c(-c3ccc(F)cc3)nn2c1	orf19.4144 kinase Candida albicans	MIB/MS competition binding	Candida albicans cell lysate	1 µM	relative to: DMSO, lower = stronger binding	log2 fold change	-0.0452
c1coc(-c2n[nH]cc2-c2ccnc3ccccc23)c1	RIM15 (Candida albicans)	kinase binding, MIB/MS competition	Candida albicans lysate	10 µM	relative to: DMSO	log2 fold change	0.63
CN[C@H](CC(C)C)C(=O)N[C@H]1C(=O)N[C@@H](CC(N)=O)C(=O)N[C@H]2C(=O)N[C@H]3C(=O)N[C@H](C(=O)N[C@H](C(=O)O)c4cc(O)cc(O)c4-c4cc3ccc4O)[C@H](O)c3ccc(c(Cl)c3)Oc3cc2cc(c3O[C@@H]2O[C@H](CO)[C@@H](O)[C@H](O)[C@H]2O[C@H]2C[C@](C)(N)[C@H](O)[C@H](C)O2)Oc2ccc(cc2Cl)[C@H]1O	Staphylococcus epidermidis	–	methicillin-resistant, 10 isolates	pH 5.5	–	MIC50	1 mg/L (≈ 0.69 µM)
CCn1cc(-c2cc(Cn3ccoc3=N)cc3c2CCN([C@@H](C)c2cc(OC)ccn2)C3=O)c(C(F)(F)F)n1	HCC70	cell growth, inhibitor	–	120 h	–	pEC50	< 4.52
CC(C)n1ncc2c(C(=O)NCC3(C)CNC3)cc(C3CC3)nc21	Enterovirus D68	time-of-addition	RD, US/MO/14-18947	3 µM, 1 to 1 h post infection	–	virus titre	400 PFU/mL and 200 PFU/mL
N#Cc1ccn2c(-c3ccncc3)c(-c3ccc(F)cc3)nc2c1	orf19.4144 kinase Candida albicans	MIB/MS competition binding	Candida albicans cell lysate	10 µM	relative to: DMSO, lower = stronger binding	log2 fold change	0.0316
CC(=O)NC[C@H]1CN(c2ccc(N3CCOCC3)c(F)c2)C(=O)O1	Enterococcus faecium	–	-9 vancomycin-intermediate, mice, systemic infection	intravenous, 2 and 8 h post-infection, survival over 7 days	–	ED50	20.1 mg/kg

Repeated from above:
SMILES	tested on	test	test system	setting	scale	measurement	result
N#Cc1ccn2c(-c3ccncc3)c(-c3ccc(F)cc3)nc2c1	orf19.4144 kinase Candida albicans	MIB/MS competition binding	Candida albicans cell lysate	10 µM	relative to: DMSO, lower = stronger binding	log2 fold change	0.0316
O=C(N1CCc2ccccc21)n1ccnn1	Arabidopsis thaliana	–	wild type, seedlings	1 µM, continuous red light, together with: 0.3 µM karrikin KAR2	–	hypocotyl length	13.2 mm
c1ccc(-c2n[nH]cc2-c2ccnc3ccccc23)nc1	orf19.6492 kinase Candida albicans	MIB/MS competition binding	Candida albicans cell lysate	10 µM	relative to: DMSO, lower = stronger binding	log2 fold change	1.32
